Measurements of several laboratories.
Numbered parts are unrelated; each lists some results of a single study.

Block 1
Target: Phosphate system positive regulatory protein PHO4, full length, GST-tagged (PHO4, Saccharomyces cerevisiae, UniProt P07270, residues 1-312)
Method: competition protein-binding microarray
Form: double-stranded DNA, one strand shown
Sample: in vitro
Tested at: 2 µM
Notes: whole 60-bp probe, lowest competitor level
Together with: Cbf1 competitor, 0.05 µM
Direction: higher = stronger binding
Constant ends, left off below: … GTCTTGATTCGCTTGACGCTGCTG
Residues (chain): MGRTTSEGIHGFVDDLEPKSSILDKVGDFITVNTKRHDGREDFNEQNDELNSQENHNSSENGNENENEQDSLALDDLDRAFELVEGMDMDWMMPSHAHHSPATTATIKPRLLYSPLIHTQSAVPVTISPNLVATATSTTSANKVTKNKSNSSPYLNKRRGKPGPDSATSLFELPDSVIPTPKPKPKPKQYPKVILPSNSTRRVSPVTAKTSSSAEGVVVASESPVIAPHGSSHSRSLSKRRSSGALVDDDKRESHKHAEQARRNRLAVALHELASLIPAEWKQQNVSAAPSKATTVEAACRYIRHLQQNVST
Sequence | fluorescence intensity
CGGGGTTAAGTTTGTTACGTGGGTGGCTTGCAGCAG | 6400 a.u.
CTTCCAAATGATGTTTTCGTGCGATAACTTAAGTAT | 4770 a.u.
CAAGATAGGGAGAGCCACGTGATAGACTGGGGAGAG | 17700 a.u.
TTATGTACAACAGCCCTCGTGCTTTCACCGTTGTAG | 11800 a.u.
CTTCTGTAAATTTTTCACGTGAAGTGAAGCGCCCCG | 7910 a.u.
TGCGCAACAACTTGATGTGTGGGTGTATGTCTAGAA | 6370 a.u.
TATTTATGTTTAATCCACGTTACACCACCAATTATA | 9220 a.u.
TATCACCCTTTAGGAGCCGTGATGGAGAAGACTACC | 4250 a.u.
TTGGCCGATTAAGAACCCGTGAGAACCACCAGAGAA | 4980 a.u.
CATCATCGCATCTTACAGATGTCCCGGTTTCACTTT | 4360 a.u.
CTGGCGTACGACATGAACGTGGTGAGCTCTCTTGTG | 10600 a.u.
TTGAGGATCATCCAACACGTGCGATAACGTATCGAC | 17000 a.u.
CGGGGTTAAGTTTGTCACTTAACTTGCTTGCAGCAG | 3210 a.u.
TCCGATGGAAACGAGCATGTGGCCGATAGATCTAAA | 10600 a.u.
CTTTCCCGATCTTGGCCCGTGGGTGTAGCACATTTG | 9040 a.u.
TTGTGGCAATCCGACCACGTCTTGTCTTCTTAACTT | 6330 a.u.
CTAACGAAGGTTTGTGGGGTGGGTGACAAGCCAAGT | 4820 a.u.
CCCTTGATTTCTGCCTGTGTGATATTAAATAATTGT | 4540 a.u.
CTTTTGTCCAAGTTCCACGTGTCCAAAAATTGGAAA | 15600 a.u.

Block 2
Target: Fragile X messenger ribonucleoprotein 1, C-terminal low-complexity region (Fmr1, Mus musculus, UniProt P35922)
Method: RNA Bind-n-Seq
Form: RNA
Sample: in vitro
Tested at: 200 nM
Notes: whole 134-nt RNA, ends assumed
Together with: 150 mM KCl
Baseline: input library
Direction: higher = stronger binding
Constant ends, left off below: GGGAGUUCUACAGUCCGACGAUC … UGGAAUUCUCGGGUGUCAAGG
Sequence | log2 enrichment
UCCUGUGCUACACAUCGUAUGUACCGAAUCGGGAAAAAGGGGAAAAAGGGGAAAAAGGGGAAAGUAUUAUGUUACGCCGUUCGGAUCUGC | 0.181
UUCCAUUGUGAACGUGCCUGGUGAGUCUACUCUUCGCCGAGAUUUCCUGAGACUGCAGCAGGAGAACAAGGAACGUUCCGAGGCUCUUCG | -1.83
CCUCAAGUCCUGUGCUACACAUCGUAUGUACCGAAUCGGUUGGUUGGGGUUGGAAAGUAUUAUGUUACGCCGUUCGGAUCUGCACUUCCA | 0.02
UCCUGUGCUACACAUCGUAUGUACCGAAUCGGGAAAAAGGGUUUUUGGGAAAAAAAGGGAAAGUAUUAUGUUACGCCGUUCGGAUCUGCA | -0.329
UCCUGUGCUACACAUCGUAUGUACCGAAUCGGGGUGGGGAAAAAAAGGGGAAAAAGGGGAAAGUAUUAUGUUACGCCGUUCGGAUCUGCA | 0.566
AGUCCUGUGCUACACAUCGUAUGUACCGAAUCAAACCCAAAUUUAAACCCCCCCAAAAAAGUAUUAUGUUACGCCGUUCGGAUCUGCACU | -0.175
UAACUUUAGAGGAGGAUCUGAUGGAUAUGGCAGUGGACGUGGAUUUGGGGAUGGCUAUAAUGGGUAUGGAGGAGGACCUGGAGGUGGCCA | 0.327
GCAGGAAGUAAAAACAAAUGGAAAUGCUUCGGAUAGUGGCAGGGGUGGUGGUUGCUAAGGAAAGGGUGGGAUGGGAGUGGGUAAAGAGUU | 0.154
UUAAGGGAAUCUAUUGCUGAACACAAACCUCAUAUUGACAAACUACUAAAGAUAGGCCCACAACUAAAGGAAUUAAACCCUGAGGAAGGG | 0.0192
GUCCUGUGCUACACAUCGUAUGUACCGAAUCGGGUUUUUGGGAAAGGGAAAAAAAGGGAAAGUAUUAUGUUACGCCGUUCGGAUCUGCAC | -0.288
CACAGACAACACGCACCCACACAGACACAGAGGGAAGGGGUUGGGAUGCGGACAGGGUGCACAGCAGGGCGGGGUAGGACCCCAGCCCCU | 0.895
UGCGGGCGGCUGAGACGCCGCCUGCCUGGCACCUAGGAGCGCAGCGGAGCCCCGACACCGCCGCCGCCGCCAUGGAGUCCGAGACCGAAC | 1
UCAAGUCCUGUGCUACACAUCGUAUGUACCGAAUCGGAAAGGAAAGGGAAAGGGGAAAGUAUUAUGUUACGCCGUUCGGAUCUGCACUUC | -0.494
CUGUGCUACACAUCGUAUGUACCGAAUCGGGCCCCCCCGGGCCCCCCCGGGCCCCCCCGGGAAAGUAUUAUGUUACGCCGUUCGGAUCUG | -1.14

Block 3
Target: RNA binding protein fox-1 homolog 2, RRM domain, GST-SBP tag (RBFOX2, Homo sapiens, UniProt O43251-10, residues 100-194)
Method: RNA Bind-n-Seq
Form: RNA
Sample: in vitro
Tested at: 365 nM
Notes: natural RNA segment, single round, ends assumed
Baseline: no-protein control
Direction: higher = stronger binding
Constant ends, left off below: GGGAGUUCUACAGUCCGACGAUC … UGGAAUUCUCGGGUGCCAA
Residues (chain): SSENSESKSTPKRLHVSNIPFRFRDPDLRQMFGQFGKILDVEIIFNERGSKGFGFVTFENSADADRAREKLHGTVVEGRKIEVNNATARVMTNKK
Sequence | RBNS enrichment (R)
GGAACUUUUAAAUUCCUUAAUGUUAAUAUUAAUGUUCAUGUUAAUGUCCUAAGCUGGCCAUUAACAUGAACUACGUCACUUUUCUUUUGAGGGUCAAAUAUUUAGUGCAU | 0.528
CGUAAGGGACAUGAAUUCUAGGGUCUCCUUUCUCCUUAUUUAUUCUUGUGGCUACAUCAUCCCUGGCUGUGGAUAGUGCUUUUGUGUAGCAAAUGCUCCCUCCUUAAGGU | 0.624
GGGCCUCGUGUCUGCCUCACUCCCGGGCCCCAGUCCUGGGUGAAGUUGGCAAAGCACUGGGUAUCUUGUGCGGCUGCCGUGGAAGGCGGCCCUGCUCGAUGCAGGGUCUG | 0.247
UUUUUUAAAUACACUUGAAAUAAAAAUGAUUAAACUAAAUUUUGGUCCAGUGACAUUACUUUGCACUGCAUAAUCCAUUAUACGUUGUACGACUUUUUUUUUUUGUUUUA | 0.595
GGACUCCUCUCAAGUUGAAGUCAUCGUCUUCAUCUUCCUCCGUAUCUUCUUCCCUCAACUUCUUCACCCCUGAAGGACGACUGUCUGCAGAUGUUGCAGGACCUUGUUUU | 0.652
GGCUGCCCUCUGUAGAGCUGUGAGAGCAGUGGGGGCUGCCCUCUGUAGAGCUGUGAGAGCAGUGGGGGCUGCCCUCUGUAGAGCUGUGAGAGCAGUGGGGGCUGCCCUCU | 0.618
AAGAUUCCCAGGCCACAGUAUAGCCUUUGCUGUGCCCUGUGGCCUGGCCACAGUGAGGCAUGUAUCUGUAGUUCCUUGCUGAAUAACAAGAAGAUAUAUGUUUGUAUAUC | 0.529
UUCGACACCAGGUACAGUAGGGCGGCACUUAUGACACCUACGUCGGCUCUGGUUGGCUGAUCAAGGGCAUGGACCAGGGGCUGCUGGGCAUGUGUCCUGGAGAGAGAAGG | 1.06
AUUGCCAAGAGGUGCUUGUUUUAAAAGUAUGUUUAAUAAAAUGAAAUUCUAAAGUUAGAAGUGUUCUUAAGUUGAUAUUUACUCUCUUGGUCUUGGUAGCCCUAUUAUAU | 0.816
ACACAAAGCAACCCAAAGGCUUUUCCCUGGAAAAGCUCUUUCUUACCUAAAGAUAAAACCAAUUCACAAACUGAAGGUAGCUUUUUAUUACUCCGUGGGGAGCAUGUACA | 20.5
AGCUUGCAGCCCGGGGACAGAGGCCAGCUGGGAUCUGCCUGAGGACAGAGAACAUGGUCUCCUGCAGGGCCCUGCCUCCCAAGCCCCGCCCUCAGAAAGCCAAGUACCUU | 0.251
AGGAGGGCACCCUAGGCUCUGGGAUCCCGUGUCUUUCCAGACAAUGUUUUGUUUCCUUUCCUUUGUUUUUUCUUUUAACUGGAAUAAUUACCAUUGAAAAAGAAGUUCCU | 0.361

Block 4
Target: Sal-like protein 4, full length isoform A (SALL4, Homo sapiens, UniProt Q9UJQ4, residues 1-1053)
Chain of UniProt Q9UJQ4 (whole entry, looked up): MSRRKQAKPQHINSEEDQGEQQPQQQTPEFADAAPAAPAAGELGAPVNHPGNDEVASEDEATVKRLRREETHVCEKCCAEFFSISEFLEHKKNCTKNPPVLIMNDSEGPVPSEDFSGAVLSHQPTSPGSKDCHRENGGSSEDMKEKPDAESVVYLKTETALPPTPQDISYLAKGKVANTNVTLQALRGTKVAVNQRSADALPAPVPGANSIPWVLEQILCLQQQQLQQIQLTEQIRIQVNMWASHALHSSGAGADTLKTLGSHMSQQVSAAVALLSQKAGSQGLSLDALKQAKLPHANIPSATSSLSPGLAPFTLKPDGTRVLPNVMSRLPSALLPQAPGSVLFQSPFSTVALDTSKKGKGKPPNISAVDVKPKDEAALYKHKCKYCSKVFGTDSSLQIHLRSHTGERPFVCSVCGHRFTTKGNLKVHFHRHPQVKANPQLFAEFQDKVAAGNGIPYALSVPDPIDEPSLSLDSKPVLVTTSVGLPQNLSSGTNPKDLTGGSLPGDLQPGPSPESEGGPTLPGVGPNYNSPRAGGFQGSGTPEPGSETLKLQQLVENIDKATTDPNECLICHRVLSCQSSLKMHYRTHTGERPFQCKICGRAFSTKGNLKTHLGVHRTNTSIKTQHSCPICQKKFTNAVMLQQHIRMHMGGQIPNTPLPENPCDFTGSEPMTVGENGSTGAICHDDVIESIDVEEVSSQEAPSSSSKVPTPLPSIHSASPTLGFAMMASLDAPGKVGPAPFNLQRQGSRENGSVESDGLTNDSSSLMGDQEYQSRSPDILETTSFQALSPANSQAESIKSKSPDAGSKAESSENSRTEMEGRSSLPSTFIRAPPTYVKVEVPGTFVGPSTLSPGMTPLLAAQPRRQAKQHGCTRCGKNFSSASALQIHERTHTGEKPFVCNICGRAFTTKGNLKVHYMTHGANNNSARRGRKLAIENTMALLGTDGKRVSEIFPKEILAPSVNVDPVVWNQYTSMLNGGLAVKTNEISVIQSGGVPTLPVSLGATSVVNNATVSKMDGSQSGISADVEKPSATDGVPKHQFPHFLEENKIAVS
Method: universal PBM
Form: double-stranded DNA, one strand shown
Sample: in vitro
Tested at: 600 nM
Notes: 8-mer, flanks averaged, mean of replicates
Direction: higher = stronger binding
Sequence | E-score
ATTTATGA | 0.433
ACTCGTGG | -0.0758
GTGAGTCA | -0.0833
AACGGCTT | -0.18
CGTCGGTC | -0.178
ACAGAACT | 0.17
GATGTGAC | 0.0133
ATTCTAAG | 0.0216
GTGAGCAC | -0.176
TATAAGCA | 0.279
CGATTGCG | -0.15
AGGACGAG | -0.132
AGCCTAAG | -0.169
CAGTTTCG | -0.102
GCAGATAA | 0.144
AAGAGGAC | -0.172
AACGTAGA | 0.142
CTAGGTCC | -0.254

Block 5
Target: Histone acetyltransferase KAT6A, winged helix 1, GST fusion (KAT6A, Homo sapiens, UniProt Q92794, residues 1-85)
Method: protein binding microarray
Form: double-stranded DNA, one strand shown
Sample: in vitro
Tested at: not given
Notes: 8-mer, flanks averaged, mean of 2 arrays, mostly near background
Baseline: not given
Direction: higher = stronger binding
Construct (chain): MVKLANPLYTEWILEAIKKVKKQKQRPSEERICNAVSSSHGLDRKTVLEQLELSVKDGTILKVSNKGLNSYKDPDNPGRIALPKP
Sequence | E-score
CCGGAGAC | 0.192
CATGGAGG | -0.148
CCTCAGGC | -0.0293
GTAAGATA | -0.02
ATAGCCAT | -0.0046
TCCACCAA | -0.324
GCTGGGCA | -0.224
GAAGTACC | 0.146
CAGAAACC | -0.146
AGGCATTG | -0.181
GATCCCCA | -0.0957
CAGCCCGA | -0.0237
GCCGTACA | 0.241
CTCAACGC | 0.153
AGCCAGGG | -0.104
ACGCCAGA | 0.0173
TCTATACA | -0.139
CGTCTAAC | 0.164
CTTTATTC | -0.245
GTCTGTAA | 0.0406
ACCTTGTC | 0.134
ATATCTAA | -0.117
CCCGTCCG | 0.423
CGTTCGAG | 0.0305

For quick reference, copied from above (block 4):
Sequence | E-score
TATAAGCA | 0.279
AGGACGAG | -0.132
AAGAGGAC | -0.172
GTGAGTCA | -0.0833
ACAGAACT | 0.17
CGTCGGTC | -0.178
CGATTGCG | -0.15
